Experimental data gathered from unrelated publications.
Each line is one published result; not all experiments were run side by side. “And” joins repeats or separate records; there may be more than shown. ± gives the spread as reported.
UniProt Q9C0K7, sequence (whole entry, looked up): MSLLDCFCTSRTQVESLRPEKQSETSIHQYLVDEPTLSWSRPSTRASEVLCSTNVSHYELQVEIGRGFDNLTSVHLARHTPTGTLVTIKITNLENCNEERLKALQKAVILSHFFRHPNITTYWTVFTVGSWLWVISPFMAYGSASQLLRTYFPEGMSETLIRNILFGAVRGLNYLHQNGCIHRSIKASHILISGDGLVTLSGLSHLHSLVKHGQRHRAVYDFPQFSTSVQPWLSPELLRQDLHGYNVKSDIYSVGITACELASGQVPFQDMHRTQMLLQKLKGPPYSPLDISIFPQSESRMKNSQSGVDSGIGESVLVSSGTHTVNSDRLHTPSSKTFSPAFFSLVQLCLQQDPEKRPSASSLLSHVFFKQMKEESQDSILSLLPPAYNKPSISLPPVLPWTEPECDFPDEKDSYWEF
UniProt Q9Y5S2, sequence (whole entry, looked up): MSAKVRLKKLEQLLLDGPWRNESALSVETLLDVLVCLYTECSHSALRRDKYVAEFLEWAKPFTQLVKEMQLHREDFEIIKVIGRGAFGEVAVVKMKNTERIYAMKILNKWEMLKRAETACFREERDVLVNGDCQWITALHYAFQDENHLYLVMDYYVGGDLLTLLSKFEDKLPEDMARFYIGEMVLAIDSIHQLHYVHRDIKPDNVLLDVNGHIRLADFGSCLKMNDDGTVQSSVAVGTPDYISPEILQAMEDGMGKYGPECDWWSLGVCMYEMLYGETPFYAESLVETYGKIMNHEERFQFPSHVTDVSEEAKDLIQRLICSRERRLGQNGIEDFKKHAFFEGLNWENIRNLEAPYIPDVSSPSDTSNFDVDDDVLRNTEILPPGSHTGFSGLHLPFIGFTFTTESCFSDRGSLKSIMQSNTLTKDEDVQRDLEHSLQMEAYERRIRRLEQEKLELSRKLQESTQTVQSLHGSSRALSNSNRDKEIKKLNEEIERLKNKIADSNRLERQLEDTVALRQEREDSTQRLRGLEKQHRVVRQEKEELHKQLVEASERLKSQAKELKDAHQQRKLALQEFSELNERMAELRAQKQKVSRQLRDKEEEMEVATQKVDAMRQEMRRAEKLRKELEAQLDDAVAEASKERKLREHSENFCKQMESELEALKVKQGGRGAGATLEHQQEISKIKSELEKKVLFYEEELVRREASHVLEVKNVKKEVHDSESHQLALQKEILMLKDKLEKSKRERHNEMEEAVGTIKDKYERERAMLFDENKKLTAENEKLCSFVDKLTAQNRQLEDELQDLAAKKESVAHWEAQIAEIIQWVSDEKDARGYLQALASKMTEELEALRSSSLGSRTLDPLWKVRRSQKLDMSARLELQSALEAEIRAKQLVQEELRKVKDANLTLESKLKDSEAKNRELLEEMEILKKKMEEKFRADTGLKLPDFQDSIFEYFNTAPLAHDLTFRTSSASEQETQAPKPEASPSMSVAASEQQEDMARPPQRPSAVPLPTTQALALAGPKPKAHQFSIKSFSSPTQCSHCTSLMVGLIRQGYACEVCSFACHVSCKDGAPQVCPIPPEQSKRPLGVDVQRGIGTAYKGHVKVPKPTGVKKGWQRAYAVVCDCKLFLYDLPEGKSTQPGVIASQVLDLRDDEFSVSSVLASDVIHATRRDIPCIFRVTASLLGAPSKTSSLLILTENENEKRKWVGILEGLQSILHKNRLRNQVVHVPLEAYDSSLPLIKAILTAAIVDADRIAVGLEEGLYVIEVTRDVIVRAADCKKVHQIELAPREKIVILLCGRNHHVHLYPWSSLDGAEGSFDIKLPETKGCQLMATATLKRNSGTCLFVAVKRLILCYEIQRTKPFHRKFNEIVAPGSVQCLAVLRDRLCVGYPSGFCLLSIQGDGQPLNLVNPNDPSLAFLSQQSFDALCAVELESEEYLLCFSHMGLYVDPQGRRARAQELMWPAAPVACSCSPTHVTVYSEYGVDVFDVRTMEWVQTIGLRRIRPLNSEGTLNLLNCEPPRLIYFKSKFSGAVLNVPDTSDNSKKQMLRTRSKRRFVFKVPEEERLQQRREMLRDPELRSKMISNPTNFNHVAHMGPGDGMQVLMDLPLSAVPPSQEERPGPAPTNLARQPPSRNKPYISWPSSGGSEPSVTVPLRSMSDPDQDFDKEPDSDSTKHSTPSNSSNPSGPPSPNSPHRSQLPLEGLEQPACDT

Compound	target or system	assay	test system	conditions	scale	endpoint	value
CC(=O)N[C@@H](Cc1c[nH]c2ccccc12)C(=O)NCCCCCCCCCCCC(=O)NCCCC[C@@H]1NC(=O)[C@H](CCCNC(=N)N)NC(=O)[C@H](CCCNC(=N)N)NC(=O)[C@H](CCCNC(=N)N)NC(=O)[C@H](CCCNC(=N)N)NC(=O)[C@H](CCCNC(=N)N)NC1=O	CCRF-CEM	MTS		up to 10 µM, 24 h		viability	≥ 89%
CC[C@H](C)[C@H](NC(=O)[C@H](C)NC(=O)[C@H](CCCCN)NC(=O)[C@H](CCCCN)NC(=O)[C@@H](N)CCCNC(=N)N)C(=O)N[C@@H](CCCCN)C(=O)N[C@@H](CC(C)C)C(=O)N[C@H](C(=O)N[C@@H](CCCCN)C(=O)N[C@@H](CCCCN)C(=O)N[C@@H](CC(C)C)C(=O)N[C@H](C(=O)N[C@@H](CCCCN)C(=O)N[C@@H](CCCCN)C(=O)N[C@@H](CC(C)C)C(=O)N[C@@H](CCCCN)C(=O)N[C@@H](CCCCN)C(=O)N[C@@H](C)C(=O)N[C@@H](CC(C)C)C(=O)N[C@@H](CCCCN)C(=O)O)C(C)C)C(C)C	HaCaT	cell growth or viability, MTT		8 µg/mL		viability	91.4%
CNC(=O)CC1CN(C(=O)c2ccc(C(F)(F)F)cn2)CCN1C(=O)c1cccnn1 (stereo not drawn)	Huh-7-ACE2	CellTiter-Glo		0.0122 µM, 48 h, unit not given	reference: DMSO	viability	0.971 and 0.827 and 0.997
CC(C)(C)C(=O)OCOP(=O)(OCOC(=O)C(C)(C)C)C1CCCN(O)C1=O (stereo not drawn)	NCI-H460					log TGI	-4.89 log M
CS(C)(=O)=Nc1ccc(-c2ccc(-c3nc4cc(O[C@@H]5CO[C@H]6[C@@H]5OC[C@H]6O)[nH]c4cc3F)cc2)cc1	Serine/threonine-protein kinase MRCK beta (CDC42BPB, Homo sapiens, UniProt Q9Y5S2)	enzyme activity, inhibitor		10 µM		inhibition	1%
COc1ccccc1-c1n[nH]c2nc(NC3CCN(C(=O)Cc4ccc(F)cc4F)CC3)ncc12		bead binding, competition bead pull-down, measured: LINJ.29.1360	Leishmania donovani extract	10 µM	reference: vehicle	relative abundance	0.93
O=C1NC2(CC2)COc2ncc(F)cc2[C@H]2COCCN2c2ccn3ncc1c3n2			Sprague-Dawley rat, male, serum	oral, 10 mg/kg/day, 4 weeks daily, end of treatment		total cholesterol	1.24 ± 0.29 mmol/L
CC[C@H](C)[C@H](NC(=O)[C@H](C)NC(=O)[C@H](CCCCN)NC(=O)[C@H](CC(C)C)NC(=O)[C@@H](N)Cc1ccccc1)C(=O)N[C@@H](CCCCN)C(=O)N[C@@H](CCCCN)C(=O)N[C@@H](Cc1ccccc1)C(=O)NCC(=O)N[C@@H](CCCCN)C(=O)N[C@@H](CCC(=O)O)C(=O)N[C@@H](Cc1ccccc1)C(=O)N[C@@H](CCCCN)C(=O)N[C@@H](CCCCN)C(=O)N[C@H](C(=O)NCC(=O)N[C@@H](C)C(=O)N[C@@H](CCCCN)C(=O)N[C@@H](CC(C)C)C(=O)N[C@@H](CCCCN)C(=O)O)[C@@H](C)CC	HaCaT	cell growth or viability, MTT		16 µg/mL		viability	91.5%
O=c1n(CCNCCOS(=O)(=O)c2ccccc2)c(=O)n(S(=O)(=O)c2ccccc2)c(=O)n1S(=O)(=O)c1ccccc1	HUVEC	cell growth or viability, MTT		12.5 µg/mL, 72 h		viability	23.7%
COC(=O)c1cc2c(=O)n3ccccc3nc2n1Cc1ccccc1	Vero	MTT		25 µM, 24 (unit not given)		viability	58.4%
CNC(=O)C[C@H](Cc1ccc(F)cc1)NC(=O)[C@@H](Cc1ccc(Cl)cc1Cl)NC(=O)[C@H](N)Cc1ccccc1C#N	Huh-7-ACE2	CellTiter-Glo		0.0122 µM, 48 h, unit not given	reference: DMSO	viability	0.934 and 1.05 and 1.04
CN(C)[C@H]1C[C@@]23CC[C@@]4(O2)C(=CC[C@]2(C)[C@@H](c5ccc6ccncc6c5)CC[C@H]24)C=C3[C@@H](O)[C@@H]1O	STE20-related kinase adapter protein beta (Homo sapiens, UniProt Q9C0K7)	ATP probe labelling, inhibitor, KiNativ profiling		1 µM		inhibition	6.8%
O=C(CCc1ccccc1)NOC(=O)OCc1ccccc1	MCF7			25 µM, 24 h		viability	> 90%
CNC(=O)C[C@H](Cc1ccncc1)NC(=O)[C@@H](Cc1cccc(Br)c1)NC(=O)[C@@H](N)Cc1ccsc1	Huh-7-ACE2	CellTiter-Glo		12.5 µM, 48 h, unit not given	reference: DMSO	viability	1.15 and 1.05 and 1.09
NC(=O)N/N=C/c1ccc(OCc2ccccc2)cc1	IMR-32	MTT		200 µg/mL, 24 h	reference: untreated control	viability	42%

Repeated from above:
Compound	target or system	assay	test system	conditions	scale	endpoint	value
CC(C)(C)C(=O)OCOP(=O)(OCOC(=O)C(C)(C)C)C1CCCN(O)C1=O (stereo not drawn)	NCI-H460					log TGI	-4.89 log M
